Published values gathered from unrelated publications.

O=C(Nc1c(Cl)cncc1Cl)c1ccc(OC(F)F)c(OCC2CC2)c1  IC50 (PBMC; cytokine release, MSD, measured: IL-6; 24 h, together with: anti-CD3ε/anti-CD28): 0.023 µM
C[C@H]1CN(C2COC2)CCN1c1ccc(Nc2cc(-c3ccnc(N4CCn5c(cc6c5CC(C)(C)C6)C4=O)c3CO)cn(C)c2=O)nc1  IC50 (TMD8 wild-type; calcium flux, FLIPR; 2 h preincubation, together with: anti-IgM): 0.0038 µM
CCCCN1C[C@H](O)[C@@H](O)[C@@H](O)[C@H]1CO  IC50 (sample A patient fibroblasts; Gb3 level lowering, LC-MS/MS, measured: Gb3 d18:1/22:0; 216 h): 16.1 µM
CCOc1cc([C@@H](CS(C)(=O)=O)N2C(=O)c3cccc(NC(C)=O)c3C2=O)ccc1OC  IC50 (PBMC; cytokine release, MSD, measured: IL-6; 24 h, together with: anti-CD3ε/anti-CD28): 0.33 µM
Cc1c(C)c2c(c(C)c1O)CCC(C)(COc1ccc(CC3SC(=O)NC3=O)cc1)O2 (stereo not shown)  IC50 (hepatocytes, iPSC-derived, line L1; cell viability, RealTime-Glo MT; 48 h, differentiation day 23): 10 µM
CCN1[C@@H](C(=O)NC23CCC(C(=O)O)(CC2)CC3)[C@H](c2cccc(Cl)c2F)[C@]2(C(=O)Nc3cc(Cl)ccc32)C12CCCCC2  IC50 (well-differentiated liposarcoma cells (MDM2 amplified); cell proliferation, alamarBlue; 72 h): 0.104 µM
CC(=O)c1c(O)c(C)c(O)c2c1OC1=CC(=O)C(C(C)=O)C(=O)C12C (single isomer, unassigned; (+))  IC50 (hepatocytes, iPSC-derived, line W3; cell viability; 48 h): 45 µM
CC1(C)CCC(CN2CCN(c3ccc(C(=O)NS(=O)(=O)c4ccc(NCC5CCOCC5)c([N+](=O)[O-])c4)c(Oc4cnc5[nH]ccc5c4)c3)CC2)=C(c2ccc(Cl)cc2)C1  IC50 (CD19+ B cells from myeloma patients; cell viability, high-throughput flow cytometry): 0.00567 µM
C=CC(=O)N1CCC[C@@H](c2ccc(C(N)=O)c3[nH]ccc23)C1  IC50 (TMD8 wild-type; calcium flux, FLIPR; 1 h preincubation, together with: anti-IgM): > 1 µM
O=C(O)COCC(=O)O  IC50 (hepatocytes, iPSC-derived, line W3; cell viability, RealTime-Glo MT; 24 h, differentiation day 23): 13100 µM

Some of these lines once more:
CCN1[C@@H](C(=O)NC23CCC(C(=O)O)(CC2)CC3)[C@H](c2cccc(Cl)c2F)[C@]2(C(=O)Nc3cc(Cl)ccc32)C12CCCCC2  IC50 (well-differentiated liposarcoma cells (MDM2 amplified); cell proliferation, alamarBlue; 72 h): 0.104 µM
